Assay results gathered from unrelated publications.
A part holds a random share of what one study measured. Substitutions count along the parent as printed.

Sample 1
Target: Interferon regulatory factor 3, full length, phosphomimetic (IRF3, Homo sapiens, UniProt Q14653, residues 1-427, S386D/S396D/S398D/S402D/T404D/S405D)
UniProt Q14653, sequence (whole entry, unmodified, looked up): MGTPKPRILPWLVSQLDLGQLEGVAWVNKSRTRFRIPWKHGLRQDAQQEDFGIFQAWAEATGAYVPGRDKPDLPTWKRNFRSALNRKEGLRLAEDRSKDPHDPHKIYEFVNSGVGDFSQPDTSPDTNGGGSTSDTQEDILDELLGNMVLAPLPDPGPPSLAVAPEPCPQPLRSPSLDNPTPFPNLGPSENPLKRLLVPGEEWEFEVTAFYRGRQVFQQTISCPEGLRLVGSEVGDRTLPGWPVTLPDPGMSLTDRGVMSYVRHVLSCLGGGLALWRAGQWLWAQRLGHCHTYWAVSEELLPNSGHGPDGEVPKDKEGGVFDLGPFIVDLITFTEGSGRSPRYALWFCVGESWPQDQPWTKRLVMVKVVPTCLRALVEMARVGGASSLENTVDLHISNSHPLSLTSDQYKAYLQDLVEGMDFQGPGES
Method: protein-binding microarray
Molecule type: double-stranded DNA, one strand shown
Sample: in vitro
Concentration: 2540 nM top
Notes: 60-bp whole probe
With: salmon DNA 0.4 mg/ml
Reference: random background probes
Direction: higher = stronger binding
Constant ends, left off below: GCCTAGCAC … GTCTTGATTCGCTTGACGCTGCTG
`TCATTTTTGCATTGCTTACTGTGCTAG` — result for “fitted relative affinity”: 1.33 z-score.
`TTAGATTTCGGGTATCGAATAGTGCTA`: “fitted relative affinity” 1.6 z-score.
`GACGGTCTCGGACTAGGGACGTGCTAG`: “fitted relative affinity” 0.344 z-score.
Under “fitted relative affinity”, `TTACGTTTCGACACTGGGTTAGTGCTA` is recorded as 2.39 z-score.
`TTAGGTTTCGGTACTGGGTTAGTGCTA`: “fitted relative affinity” 7.58 z-score.
For `GACGATCTCAGGCTGGAGACGTGCTAG`, “fitted relative affinity” read -0.0247 z-score.
`TCATTTATGTCCTGTCTAACTGTGCTA` — result for “fitted relative affinity”: 1.4 z-score.
For `TTAGGTTTCCTTCTCCTTAAGTGCTAG`, “fitted relative affinity” read 10.5 z-score.
`TTAGGTTTCCTTTACCTTTAGTGCTAG` — result for “fitted relative affinity”: 6.98 z-score.
`TTAGGTCTCGGACCGGGTTAGTGCTAG` — result for “fitted relative affinity”: -0.436 z-score.
`TTTGGAGTCATTCTCAACCCGTGCTAG` — result for “fitted relative affinity”: 0.787 z-score.

Sample 2
Target: Histone acetyltransferase KAT6A, winged helix 1, GST fusion (KAT6A, Homo sapiens, UniProt Q92794, residues 1-85)
Method: protein binding microarray
Molecule type: double-stranded DNA, one strand shown
Sample: in vitro
Concentration: not given
Notes: 8-mer, flanks averaged, mean of 2 arrays, mostly near background
Reference: not given
Direction: higher = stronger binding
Construct (chain): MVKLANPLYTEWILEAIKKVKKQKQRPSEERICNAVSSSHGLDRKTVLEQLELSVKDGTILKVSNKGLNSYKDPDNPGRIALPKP
`CCTATCAC` has an E-score of -0.178.
`ATTCAACA` has an E-score of -0.106.
`ACTTCAAG` gave an E-score of -0.161.
For `ATTGTGGC`, the E-score was -0.0254.
The E-score of `GGGAAACA` is reported as 0.0347.
`TAATACAA` has an E-score of -0.171.
With `CATGAATC` the E-score was -0.0544.
With `GAACTTGC` the E-score was -0.11.
With `AGAGTGTG` the E-score was -0.138.
`GCGCAAAC` gave an E-score of 0.288.
`AATATACT` has an E-score of -0.201.
`TAAGGGAA` has an E-score of -0.187.
The E-score of `GATACCCC` is reported as -0.0362.
For `ACACACTA`, the E-score was -0.0298.

Sample 3
Target: Sal-like protein 4, full length isoform B (SALL4, Homo sapiens, UniProt Q9UJQ4-2, residues 1-616)
Method: universal PBM
Molecule type: double-stranded DNA, one strand shown
Sample: in vitro
Concentration: not given
Notes: 8-mer, flanks averaged, mean of replicates
Direction: higher = stronger binding
`CGCTCCTC` gave an E-score of -0.317.
With `TACTTTCA` the E-score was 0.203.
`ATGACAGC` gave an E-score of 0.0259.
For `CGCGACCG`, the E-score was -0.298.
For `GAATCGAA`, the E-score was 0.08.
For `CTCTAATC`, the E-score was -0.0474.
`GAGATATC` has an E-score of 0.108.
`GTTACAAC` gave an E-score of 0.0793.
For `AAGTGAGC`, the E-score was -0.19.
`ACAGAGGC` gave an E-score of -0.0913.
The E-score of `AAGTTCGT` is reported as -0.112.
With `GGCTATTA` the E-score was 0.127.
`AAATGAAT` has an E-score of 0.339.
With `ACGGTGTA` the E-score was 0.0192.
`ACTAGGAG` gave an E-score of -0.162.
The E-score of `CTTTACGC` is reported as 0.0699.
For `GGACCTCA`, the E-score was -0.182.
`CTGGTTCC` has an E-score of -0.221.
The E-score of `AAGAGAAT` is reported as 0.0718.
The E-score of `ACGGTGCT` is reported as -0.188.
The E-score of `GAACGTGA` is reported as -0.0617.
The E-score of `ACATCAAG` is reported as 0.176.
With `ATAGTGTA` the E-score was 0.234.

Sample 4
Target: Centromere-binding protein 1, full length, N-terminal tag (CBF1, Saccharomyces cerevisiae, UniProt P17106, residues 1-351)
UniProt P17106, sequence (whole entry, looked up): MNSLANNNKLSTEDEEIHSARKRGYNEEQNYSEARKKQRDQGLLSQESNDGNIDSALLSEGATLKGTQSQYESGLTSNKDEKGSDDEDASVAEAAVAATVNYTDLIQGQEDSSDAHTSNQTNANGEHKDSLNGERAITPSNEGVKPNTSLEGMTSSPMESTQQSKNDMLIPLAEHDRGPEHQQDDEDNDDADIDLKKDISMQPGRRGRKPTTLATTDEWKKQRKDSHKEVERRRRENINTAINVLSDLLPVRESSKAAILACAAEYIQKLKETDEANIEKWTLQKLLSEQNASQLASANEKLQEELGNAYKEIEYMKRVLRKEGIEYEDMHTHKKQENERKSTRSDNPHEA
Method: protein-binding microarray
Molecule type: double-stranded DNA, one strand shown
Sample: in vitro
Concentration: 0.8 µM
Notes: whole 60-bp probe, no competitor
Direction: higher = stronger binding
With `GAACTCGGTATATCCAACGTGCAGGCCAATATCTAGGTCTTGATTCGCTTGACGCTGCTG` the fluorescence intensity was 561 a.u.
`CTAATGTTCTGCAACAGCGTGCCTGTCACTTGGTTCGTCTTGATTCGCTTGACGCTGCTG` has a fluorescence intensity of 546 a.u.
The fluorescence intensity of `CTAACAATGGTACATCAGGTTTAGTCTTTGCCATTCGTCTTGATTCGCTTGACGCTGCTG` is reported as 534 a.u.
For `GAAATTTTTAAAAATCACGTAGGATAAATAGTATAGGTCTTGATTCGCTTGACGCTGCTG`, the fluorescence intensity was 650 a.u.
`GAATGCCAGAGTGTCCGCATGATTAATACTTTTTAGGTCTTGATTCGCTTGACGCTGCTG` gave a fluorescence intensity of 550 a.u.
The fluorescence intensity of `GAAGATAACTAAAGGTGACTTACCGCCAGATTATAGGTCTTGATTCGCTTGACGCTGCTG` is reported as 537 a.u.
`CTAAGCTTTCTATTACATGTGGGAAGACTAATATTCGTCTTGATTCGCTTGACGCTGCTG` has a fluorescence intensity of 593 a.u.
For `TGTACGAAGCTATCTACCGTGACTATAGTAGTTAGGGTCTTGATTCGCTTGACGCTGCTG`, the fluorescence intensity was 593 a.u.
The fluorescence intensity of `CTATCTATAAAATGAATCATGAGGATTAGGCCGTTCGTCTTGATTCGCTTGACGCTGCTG` is reported as 530 a.u.
`CTATTGAATAGTAGTCACATGATCGTTGATTATTTCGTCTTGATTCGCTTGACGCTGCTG` has a fluorescence intensity of 9140 a.u.
`CTAAGCACAATATAGCACGTCGAAACAGTGCTATTCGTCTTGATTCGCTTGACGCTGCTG` has a fluorescence intensity of 493 a.u.
The fluorescence intensity of `CTATTAGGAAACAATCACGAGACGATAACGACGTTCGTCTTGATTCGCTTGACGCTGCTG` is reported as 1670 a.u.
`CTATTTTTTCGACAACAGGTGAGTGAAATAAAATTCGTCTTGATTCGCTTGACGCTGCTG` gave a fluorescence intensity of 674 a.u.
`GAATGGGTTTTCAGGCACGTAATTTTCAAAAGATAGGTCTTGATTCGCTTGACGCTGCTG` has a fluorescence intensity of 631 a.u.

Sample 5
Target: CCNB1, cyclin fold, Cln2 fusion (human)
Method: yeast growth competition, sequencing
Sample: yeast
Notes: weak parent motif
Reference: not given
Direction: higher = stronger binding
Starting sequence: RBL1 docking peptide (human); GSAKRRLFGEDPP
For `GSAKRRLFKEDPP [G9K]`, “normalised enrichment score” read 0.816.
Under “normalised enrichment score”, `GSAKRRLFNEDPP [G9N]` is recorded as 1.92.
`GSAKRRLHGEDPP [F8H]`: “normalised enrichment score” 0.439.
`GHAKRRLFGEDPP [S2H]`: “normalised enrichment score” 1.23.
`GSAKRRLFWEDPP [G9W]`: “normalised enrichment score” 1.02.
`GSAKRRLFGEDAP [P12A]`: “normalised enrichment score” 0.691.
For `GSAKKRLFGEDPP [R5K]`, “normalised enrichment score” read 0.788.
Under “normalised enrichment score”, `DSAKRRLFGEDPP [G1D]` is recorded as 0.634.
`GSKKRRLFGEDPP [A3K]`: “normalised enrichment score” 0.588.
For `GSAKRRLFGMDPP [E10M]`, “normalised enrichment score” read 0.441.
Under “normalised enrichment score”, `GSAKRRLFGHDPP [E10H]` is recorded as -0.0566.
Under “normalised enrichment score”, `ISAKRRLFGEDPP [G1I]` is recorded as 1.5.
Under “normalised enrichment score”, `GSAKRRLFGEIPP [D11I]` is recorded as 0.24.

Sample 6
Target: PABPC1L2, full length, GST fusion (mouse, UniProt A0ABA7IW68)
Method: RNAcompete
Molecule type: RNA
Sample: in vitro
Concentration: 20 nM
Notes: 7-mer, probes averaged, single round
Reference: mean of 7-mers
Direction: higher = stronger binding
Target sequence (chain): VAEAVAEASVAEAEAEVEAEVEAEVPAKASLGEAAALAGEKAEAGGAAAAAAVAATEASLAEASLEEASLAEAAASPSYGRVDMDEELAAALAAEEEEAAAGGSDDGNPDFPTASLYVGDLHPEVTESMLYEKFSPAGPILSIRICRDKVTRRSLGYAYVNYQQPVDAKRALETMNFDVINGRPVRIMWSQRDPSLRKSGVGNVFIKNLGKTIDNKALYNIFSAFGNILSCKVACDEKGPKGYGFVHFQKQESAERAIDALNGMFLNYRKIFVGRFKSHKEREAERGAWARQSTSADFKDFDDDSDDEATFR
`CGCAUAU` has a 7-mer Z-score of -0.211.
`CCCGUCG` gave a 7-mer Z-score of -0.51.
With `GUCCGUC` the 7-mer Z-score was -0.331.
The 7-mer Z-score of `CGUAUAG` is reported as -0.211.
With `AUCUCCG` the 7-mer Z-score was -0.306.
For `AUAGACU`, the 7-mer Z-score was -0.177.
For `UCCGCAC`, the 7-mer Z-score was -0.373.
For `GAAUCCA`, the 7-mer Z-score was -0.0953.
With `CGGUCAG` the 7-mer Z-score was -0.108.
The 7-mer Z-score of `GCCUGCU` is reported as -0.231.
For `CGUUGAU`, the 7-mer Z-score was -0.293.
`UCAUGGC` gave a 7-mer Z-score of 0.0297.
The 7-mer Z-score of `CGCUCGA` is reported as -0.249.

Repeated from above (sample 1):
`TTAGATTTCGGGTATCGAATAGTGCTA`: “fitted relative affinity” 1.6 z-score.
`GACGGTCTCGGACTAGGGACGTGCTAG`: “fitted relative affinity” 0.344 z-score.
Under “fitted relative affinity”, `TTACGTTTCGACACTGGGTTAGTGCTA` is recorded as 2.39 z-score.
`TTAGGTTTCGGTACTGGGTTAGTGCTA`: “fitted relative affinity” 7.58 z-score.
For `GACGATCTCAGGCTGGAGACGTGCTAG`, “fitted relative affinity” read -0.0247 z-score.
`TCATTTATGTCCTGTCTAACTGTGCTA` — result for “fitted relative affinity”: 1.4 z-score.
For `TTAGGTTTCCTTCTCCTTAAGTGCTAG`, “fitted relative affinity” read 10.5 z-score.
`TTAGGTTTCCTTTACCTTTAGTGCTAG` — result for “fitted relative affinity”: 6.98 z-score.
`TTAGGTCTCGGACCGGGTTAGTGCTAG` — result for “fitted relative affinity”: -0.436 z-score.
